# Measurements gathered from unrelated publications.
# Compare with care: the assays were run in different laboratories. Several values in a cell are separate wells, animals, samples, runs or records. ± marks the error that the study gave.
SMILES,target,assay,system,conditions,scale,endpoint,value
COc1cc(-c2cn(C)c(=O)c3cnccc23)cc(OC)c1CN1CCN(CCCCCOc2cc(-c3scnc3C)ccc2CNC(=O)[C@@H]2C[C@@H](O)CN2C(=O)[C@@H](NC(=O)C2(F)CC2)C(C)(C)C)CC1,VHL-elongin C-elongin B and BRD9,SPR,immobilized VHL-elongin C-elongin B,,baseline: binary KD over ternary KD,cooperativity alpha,0.85
Oc1ccccc1-c1n[nH]cc1-c1ccnc2ccccc12,TPK2 (Candida albicans),"kinase binding, MIB/MS competition",Candida albicans lysate,1 µM,baseline: DMSO,log2 fold change,0.02
CN(C(=O)n1cnc(-c2ccc[n+]([O-])c2)c1)C1CCCCC1,FAAH (cynomolgus monkey),,"cynomolgus monkey, leukocytes","dose not given, 168 h",,recovery of activity,~50%
N#Cc1ccc2c(-c3ccncc3)c(-c3ccc(F)cc3)nn2c1,orf19.6492 kinase Candida albicans,MIB/MS competition binding,Candida albicans cell lysate,10 µM,"baseline: DMSO, lower = stronger binding",log2 fold change,0.224
CN(C)CCCn1c(=O)c2ccc3c(=O)n(CCCN(C)C)c(=O)c4c5[nH]c6cc([N+](=O)[O-])ccc6[nH]c5c(c1=O)c2c34,HIV-1 LTR-III G-quadruplex,FRET melting,,"0.25 µM, K+ 100 mM",,ΔTm,7 ± 0.7 °C
c1ccc(-c2n[nH]cc2-c2ccnc3ccccc23)nc1,orf19.6492 kinase Candida albicans,MIB/MS competition binding,Candida albicans cell lysate,100 nM,"baseline: DMSO, lower = stronger binding",log2 fold change,1.4
O=C(Nc1cc(OCCN2CCCC2)c2ccccc2n1)c1cc(OCc2ccc(F)cc2)cc(C(=O)Nc2cc(OCCN3CCCC3)c3ccccc3n2)n1,Bcl2 G-quadruplex DNA,FRET melting,,"1 µM, pH 7.4, together with: 60 mM potassium",,ΔTm,6.7 ± 0.5 K
COc1cc(C(=O)NS(=O)(=O)c2ccccc2C)ccc1Cc1cn(C)c2ccc(NC(=O)OC3CCCC3)cc12,native VRAC,"ion current, inhibitor, whole-cell patch clamp",wild-type HCT cells,"30 µM, pH 7.4, extracellular pH",,inhibition,94.1% and 94.9% and 93.6% and 82.6%
NCCOc1cc(NC(=O)c2cc(OCc3c[nH]nn3)cc(C(=O)Nc3cc(OCCN)c4ccccc4n3)n2)nc2ccccc12,Bcl2 G-quadruplex DNA,FRET melting,,"1 µM, pH 7.4, together with: 60 mM potassium",,ΔTm,14.4 ± 0.9 K
CN(C)CCCNc1cc2c(=O)n(CCCN(C)C)c(=O)c3c4[nH]c5ccccc5[nH]c4c4c(=O)n(CCCN(C)C)c(=O)c1c4c23,HIV-1 LTR-III G-quadruplex,FRET melting,,"0.25 µM, K+ 100 mM",,ΔTm,1.2 ± 1.1 °C
CNc1c(C)n(C)n(-c2ccccc2)c1=O,human H+/organic cation antiporter,,hCMEC/D3,"250 µM, 2 min, together with: 1 µM DPH preloading 30 min",baseline: control,trans-stimulation ratio,1.2
CCCCCCCC(=O)OC[C@H](COP(=O)(O)O[C@@H]1[C@H](O)[C@H](O)[C@@H](OP(=O)(O)O)[C@H](OP(=O)(O)O)[C@H]1O)OC(=O)CCCCCCC,Kv7.2/Kv7.3(EEE) mutant channel,"channel open probability, activator, fitted PIP2 binding model",,"model 4, K3 constrained",baseline: channel without bound PIP2,efficacy factor E2,0
COc1cc(NCCCC(C)N)c2nccc(Cl)c2c1 (centres unmarked),"Hsp90, human cancer cell lysate","binding, fluorescence polarization",,,,IC50,> 22 µM
NCCOc1cc(NC(=O)c2cccc(C(=O)Nc3cc(OCCN)c4ccccc4n3)n2)nc2ccccc12,Bcl2 G-quadruplex DNA,FRET melting,,"1 µM, pH 7.4, together with: 60 mM potassium",,ΔTm,14.7 ± 0.8 K
N#Cc1ccn2c(-c3ccncc3)c(-c3ccc(F)cc3)nc2c1,orf19.6492 kinase Candida albicans,MIB/MS competition binding,Candida albicans cell lysate,100 nM,"baseline: DMSO, lower = stronger binding",log2 fold change,0.133
NCCCOc1cc(NC(=O)c2cc(Cl)cc(C(=O)Nc3cc(OCCCN)c4ccccc4n3)n2)nc2ccccc12,Bcl2 G-quadruplex DNA,FRET melting,,"1 µM, pH 7.4, together with: 60 mM potassium",,ΔTm,18.9 ± 0.7 K
CSc1cc(Oc2ccnc3[nH]c(=O)cnc23)ccc1NC(=O)Nc1cc(C(C)(C)C)nn1-c1ccccc1,p90 ribosomal S6 kinases 1-3,reverse phase protein array,"patient-derived A cell clone line, human","1 µM, 4 h",baseline: DMSO,phospho-Thr359/Ser363 RSK1-3 to total ratio,0.62
O=C(O)COCCN1CCN([C@H](c2ccccc2)c2ccc(Cl)cc2)CC1,human H+/organic cation antiporter,,hCMEC/D3,"250 µM, 2 min, together with: 1 µM DPH preloading 30 min",baseline: control,trans-stimulation ratio,0.91
CN(C)CCOc1cc(NC(=O)c2cc(Cl)cc(C(=O)Nc3cc(OCCN(C)C)c4ccccc4n3)n2)nc2ccccc12,Bcl2 G-quadruplex DNA,FRET melting,,"1 µM, pH 7.4, together with: 60 mM potassium",,ΔTm,11.5 ± 0.9 K
CCCCN1CCCC[C@@H]1C(=O)Nc1c(C)cccc1C,human H+/organic cation antiporter,,hCMEC/D3,"250 µM, 2 min, together with: 1 µM DPH preloading 30 min",baseline: control,trans-stimulation ratio,0.59
c1coc(-c2n[nH]cc2-c2ccnc3ccccc23)c1,RIM15 (Candida albicans),"kinase binding, MIB/MS competition",Candida albicans lysate,1 µM,baseline: DMSO,log2 fold change,0.44
N[C@@H]1CONC1=O,human H+/organic cation antiporter,,hCMEC/D3,"250 µM, 2 min, together with: 1 µM DPH preloading 30 min",baseline: control,trans-stimulation ratio,1.25
CN(C)CCCn1c(=O)c2ccc3c(=O)n(CCCN(C)C)c(=O)c4c5[nH]c6cc(C(=O)O)ccc6[nH]c5c(c1=O)c2c34,HIV-1 LTR-III G-quadruplex,FRET melting,,"0.25 µM, K+ 100 mM",,ΔTm,5 ± 0.7 °C
NCCCOc1cc(NC(=O)c2cc(OCCN)cc(C(=O)Nc3cc(OCCCN)c4ccccc4n3)n2)nc2ccccc12,Bcl2 G-quadruplex DNA,FRET melting,,"1 µM, pH 7.4, together with: 60 mM potassium",,ΔTm,21 ± 1 K
CSCC[C@@H]1NC(=O)[C@H](C)NC(=O)[C@H](CCC(N)=O)NC(=O)[C@H](CCCNC(=N)N)NC(=O)[C@H](Cc2c[nH]c3ccccc23)NC(=O)CNC(=O)[C@H](CCSC)NC(=O)[C@@H]2CCCN2C(=O)[C@H](C)NC(=O)[C@@H](NC(=O)CN)CSSC[C@@H]2NC(=O)CNC(=O)[C@H](C)NC(=O)[C@H](CC(C)C)NC(=O)[C@@H]3CSSC[C@@H](C(=O)NCC(=O)O)NC(=O)[C@H](Cc4ccccc4)NC(=O)CNC(=O)[C@H](CC(N)=O)NC(=O)[C@@H]4CCCN4C(=O)CNC(=O)[C@H](CSSC[C@H](NC(=O)[C@H](CCCNC(=N)N)NC1=O)C(=O)N[C@@H](CCCCN)C(=O)N[C@@H](CCC(N)=O)C(=O)N[C@@H](CC(=O)O)C(=O)N[C@@H](CO)C(=O)N[C@@H](CC(=O)O)C(=O)N3)NC(=O)[C@H](C(C)C)NC2=O,alternative complement pathway,"inhibitor, ELISA, refers to: C5b-9","serum, normal human, 5.5%","1 h, 37 °C, LPS-coated plate",,IC50,0.28 µM
Cc1n[nH]c2ccc(-c3cc(OC[C@@H](N)Cc4ccccc4)cnc3-c3ccoc3)cc12,orf19.6492 kinase Candida albicans,MIB/MS competition binding,Candida albicans cell lysate,100 nM,"baseline: DMSO, lower = stronger binding",log2 fold change,-0.282
NC(=O)C1=CN([C@@H]2O[C@H](COP(=O)(O)OP(=O)(O)OC[C@H]3O[C@@H](n4cnc5c(N)ncnc54)[C@H](O)[C@@H]3O)[C@@H](O)[C@H]2O)C=CC1,FSP1 L323A mutant,substrate,,together with: 100 µM co-substrate,,kcat,10.9 ± 0.57 s⁻¹
COc1cc(C(=O)Nc2cc(OC)c3ccccc3n2)nc(C(=O)Nc2cc(OC)c3ccccc3n2)c1,Bcl2 G-quadruplex DNA,FRET melting,,"1 µM, pH 7.4, together with: 60 mM potassium",,ΔTm,0.3 ± 0.3 K
CN(C)CCCn1c(=O)c2cc(Br)c3c(=O)n(CCCN(C)C)c(=O)c4c5[nH]c6ccc(C(=O)O)cc6[nH]c5c(c1=O)c2c34,HIV-1 LTR-III G-quadruplex,FRET melting,,"0.25 µM, K+ 100 mM",,ΔTm,3.7 ± 1 °C
COc1cc(C(=O)Nc2cc(OCCN3CCCC3)c3ccccc3n2)nc(C(=O)Nc2cc(OCCN3CCCC3)c3ccccc3n2)c1,Bcl2 G-quadruplex DNA,FRET melting,,"1 µM, pH 7.4, together with: 60 mM potassium",,ΔTm,7.1 ± 1.1 K
CCCCCCCCCCCCCCCC(=O)Oc1ccc([N+](=O)[O-])cc1,Candida rugosa lipase,"substrate, p-nitrophenol release",,"free enzyme, optimal conditions",,Km,0.27 ± 0.02 µM
CCCCC(CC)C(C)c1ccc(O)cc1 (centres unmarked),HBV core protein Cp149 dimer,solution NMR,,"4 molar equivalents, pH 7.5, 295 K, average over eight residues",baseline: apo Cp149 dimer,average chemical shift perturbation,0.024 ppm
